Assay results pooled from the literature.
Protocols differ between the studies behind these lines. Numbers after ± are the reported error.

| SMILES | tested on | assay | system | setting | scale | quantity | value |
| --- | --- | --- | --- | --- | --- | --- | --- |
| CCc1cccc(N(C)C(=N)Nc2cccc3ccccc23)c1 | Plasmodium falciparum |  | D10 |  |  | IC50 | 12.6 µM |
| CN[C@H]1CC[C@@H](c2ccc(Cl)c(Cl)c2)c2ccccc21 |  |  | CD-1 mouse, male, lung | intraperitoneal, 30 mg/kg |  | elimination rate constant | 6.15e-05 s⁻¹ |
| O=[N+]([O-])c1ccc2c(c1)S(=O)(=O)C=C2 |  |  | male C57BL/6 mice, blood | intraperitoneal, 20 mg/kg, day 8, group average |  | red cell distribution width SD | 29.5 fL |
| COc1cccc(-c2ccnc(Nc3ccc(N4CCN(C)CC4)c(C(F)(F)F)c3)n2)c1 |  |  | zebrafish embryos | 50 µM, 5 d |  | toxicity | 0% |
| CC(C)(O)c1cc(Nc2cc(Oc3cn(C4CC4)nc3C3CCOCC3)ccn2)ccn1 |  | Constipation | advanced cancer patients, grade 4 glioma expansion | oral, 50 mg twice daily, all causality any grade |  | treatment-emergent adverse events | 8% |
| O=C(O)CCCOc1ccc(F)cc1-c1cc(-c2ccccc2C(F)(F)F)n(-c2ccccc2)n1 |  | item: α1-glb | Crl:CD(SD) rats, female, serum | iv, 25 µg/kg, 1 day |  | serum protein fraction | 19 ± 1.8% |
| COc1ncccc1-c1cnn2ccc(N3CCN(C(=O)OC(C)C)CC3)nc12 |  |  | mouse nerve ligation model, plasma | oral, 3 mg/kg, 120 min after last dose, repeat dosing day 4 |  | drug concentration | 610 nM |
| O=S(=O)([O-])C(F)(F)C(F)(F)C(F)(F)C(F)(F)C(F)(F)C(F)(F)C(F)(F)C(F)(F)F.[K+] |  |  | male C57BL/6J mice, EtOH-fed | dose not given | relative to: efavirenz and pair-fed | ratio, liver weight, to body weight | increased |
| N.N.O=C([O-])C1(C(=O)[O-])CCC1.[Pt+2] |  | ICP-MS platinum, item: platinum | human patients, plasma | dose not given, carboplatin target AUC 3, cycle 1 day 1 |  | AUC(0-48 h) | 95200 ng·h/mL |
| O=S(=O)(Nc1ccccc1)c1ccc(NC(=S)Nc2ccccc2)cc1 |  | item: Bu | male mouse, blood | oral, 5 mg/kg daily, 14 days |  | blood chemistry level | 0.15 mg/dL |
| O=C(Nc1ccccc1)C1CCN(C(=O)Oc2cccnc2)CC1 |  | psychotropic effects VAS | healthy women | 100 mg | relative to: pre-dose baseline, direction not given | change in Drowsy score | 3.1 |
| CC(=O)c1c(C)c2cnc(Nc3ccc(C4CCN(CCS(C)(=O)=O)CC4)cn3)nc2n(C2CCCC2)c1=O |  |  | HR+/HER2- advanced breast cancer patients | oral, 100 mg twice daily, all grades,, monotherapy |  | patients with AST increased | 13.3% |
| CC[C@H](C)[C@H](NC(=O)[C@H](C)NC(=O)[C@H](CCCCN)NC(=O)[C@H](CC(C)C)NC(=O)[C@H](C)NC(=O)[C@@H](NC(=O)[C@H](Cc1c[nH]cn1)NC(=O)[C@H](CC(C)C)NC(=O)[C@@H](NC(=O)[C@@H](NC(=O)[C@H](CCCCN)NC(=O)[C@H](C)NC(=O)[C@H](C)NC(=O)[C@H](CO)NC(=O)[C@H](CCCCN)NC(=O)[C@H](Cc1ccccc1)NC(=O)[C@@H](NC(=O)[C@H](CCCCN)NC(=O)[C@H](CC(C)C)NC(=O)[C@H](Cc1ccccc1)NC(=O)[C@H](CO)NC(=O)[C@H](CCCCN)NC(=O)[C@H](Cc1c[nH]c2ccccc12)NC(=O)[C@H](CCCCN)NC(C)=O)[C@@H](C)O)[C@@H](C)O)C(C)C)[C@@H](C)O)C(=O)N[C@@H](CO)C(=O)N[C@@H](CO)C(N)=O |  |  | minipigs, both sexes, plasma | intravenous, 20 mg per animal |  | elimination half-life | 0.66 ± 0.15 h |
| CO[C@H]1C[C@@H]2CC[C@@H](C)[C@@](O)(O2)C(=O)C(=O)N2CCCC[C@H]2C(=O)O[C@H]([C@H](C)C[C@@H]2CC[C@@H](OC(=O)NCCOCCOCCOCCOCCOCCOCCOCCOCCC(=O)N3CCc4cc(Cn5nc(-c6ccc7oc(N)nc7c6)c6c(N)ncnc65)ccc4C3)[C@H](OC)C2)C[C@@H](O)[C@H](C)/C=C(\C)[C@@H](O)[C@@H](OC)C(=O)[C@H](C)C[C@H](C)/C=C/C=C/C=C/1C |  | dose-escalation trial | patients with advanced solid tumours | intravenous, all doses weekly, any grade |  | nausea TEAE incidence | 53% |
| C[C@@H]1NC(=O)[C@H](CCCCNC(=O)CO/N=C/C(=O)NCCCC[C@@H]2NC(=O)[C@@H](Cc3ccccc3)NC(=O)[C@H](CC(=O)O)NC(=O)CNC(=O)[C@H](CCCNC(=N)N)NC2=O)NC(=O)CNC(=O)[C@@H]2CCCN2C(=O)[C@H](CCCCNC(=O)CO/N=C/C(=O)NCCCC[C@@H]2NC(=O)[C@@H](Cc3ccccc3)NC(=O)[C@H](CC(=O)O)NC(=O)CNC(=O)[C@H](CCCNC(=N)N)NC2=O)NC(=O)[C@H](CCCCNC(=O)CN2CCCNCCNCCCNCC2)NC(=O)[C@H](CCCCNC(=O)CO/N=C/C(=O)NCCCC[C@@H]2NC(=O)[C@@H](Cc3ccccc3)NC(=O)[C@H](CC(=O)O)NC(=O)CNC(=O)[C@H](CCCNC(=N)N)NC2=O)NC(=O)CNC(=O)[C@@H]2CCCN2C(=O)[C@H](CCCCNC(=O)CO/N=C/C(=O)NCCCC[C@@H]2NC(=O)[C@@H](Cc3ccccc3)NC(=O)[C@H](CC(=O)O)NC(=O)CNC(=O)[C@H](CCCNC(=N)N)NC2=O)NC1=O [copper-64 labelled] |  |  | normal mice, lung | intravenous, 0.74 MBq, 24 h post-injection |  | tissue uptake | 1.48 ± 0.37 %ID/g |
| Clc1cc(Cl)c(-c2c(Cl)c(Cl)cc(Cl)c2Cl)cc1Cl |  |  | fresh water | 20 °C, S30-2 sampler, 30 µm |  | log K(PDMS-water) | 6.7 ± 0.1 |
| Cn1cc(-c2nc(N[C@@H]3CCCC[C@@H]3N)c(F)c3c2C(=O)NC3)cn1 |  | item: Gastric haemorrhage | patients with relapsed or refractory AML | oral, 80 mg twice daily |  | hemorrhagic adverse events | 67% |
| CCN1CCN(Cc2ccc(Nc3ncc(F)c(-c4cc(F)c5nc6n(c5c4)[C@H](C)CCC6)n3)nc2)CC1 |  |  | advanced solid tumour patients | dose not given, Phase Ia monotherapy |  | Nausea incidence, any grade | 33.3% |
| CC1(C)[C@H](C(=O)OCc2cccc(Oc3ccccc3)c2)[C@@H]1C=C(Cl)Cl |  |  | pooled human liver cytosol |  |  | CLint | 57.2 µL/min/mg |
| CC[C@H](C)[C@@H]1NC(=O)[C@@H]2CSSC[C@H](NC(=O)[C@H](CCCNC(=N)N)NC(=O)[C@@H]3CSSC[C@H](NC1=O)C(=O)N[C@@H]([C@@H](C)O)C(=O)N[C@@H](CCCNC(=N)N)C(=O)NCC(=O)N[C@@H](Cc1ccccc1)C(=O)N3)C(=O)N[C@@H](CC(C)C)C(=O)N[C@H]1CSSC[C@H](NC(=O)[C@H](C(C)C)NC(=O)CNC(=O)[C@H](CCCNC(=N)N)NC(=O)[C@H](CCCNC(=N)N)NC1=O)C(=O)N[C@@H](CCCNC(=N)N)C(=O)N2 |  |  | Sprague-Dawley rat, male, lung | 5 mg/kg, perivascular, peribronchiolar | direction not given | lung eosinophilic infiltration score | 1 to 2 |

| SMILES | tested on | assay | system | setting | scale | quantity | value |
| --- | --- | --- | --- | --- | --- | --- | --- |
| c1cc2ccc3cccc4ccc(c1)c2c34 |  |  | polyethylene-water partitioning | PAH compilation |  | literature range of log K | 4.7 to 5.25 log units |
| CC(C)(C)c1cc(C=C(C#N)C#N)cc(C(C)(C)C)c1O | Plasmodium falciparum |  | GB4 |  |  | IC50 | 0.93 µM |
| Clc1cc(-c2ccc(Cl)c(Cl)c2Cl)cc(Cl)c1Cl |  |  | PDMS-water partitioning | PCB compilation | relative to: maximum over minimum K | literature range factor | 1.4 |
| CC/C(=C(\c1ccccc1)c1ccc(OCCN(C)C)cc1)c1ccccc1 |  |  | CD-1 mouse, male, plasma | intraperitoneal, 10 mg/kg |  | Tmax | 2 h |
| C[C@@H](NC(=O)N1C(=O)[C@H](Cc2ccnc(N)c2)[C@H]1C(=O)O)C1CCCCC1 |  |  | healthy adult Chinese volunteers | continuous intravenous infusion, 1.5 mg/kg/h, 5-day infusion, CTCAE 5.0 grading |  | incidence of abnormal liver function | 0% |
| CC[C@H](C)[C@H](NC(=O)CN)C(=O)NCC(=O)N[C@@H](CCCCN)C(=O)N[C@@H](Cc1ccccc1)C(=O)N[C@@H](CC(C)C)C(=O)N[C@@H](Cc1c[nH]cn1)C(=O)N[C@@H](CO)C(=O)N[C@@H](C)C(=O)N[C@@H](CCCCN)C(=O)N[C@@H](CCCCN)C(=O)N[C@@H](Cc1ccccc1)C(=O)NCC(=O)N[C@@H](CCCCN)C(=O)N[C@@H](C)C(=O)N[C@@H](Cc1ccccc1)C(=O)N[C@H](C(=O)NCC(=O)N[C@@H](CCC(=O)O)C(=O)N[C@H](C(=O)N[C@@H](CCSC)C(=O)N[C@@H](CC(N)=O)C(=O)N[C@@H](CO)C(N)=O)[C@@H](C)CC)C(C)C |  | UPLC | TFA water/acetonitrile gradient |  | longer = more hydrophobic | retention time | 2.12 min |
| CC(C)Nc1ccnc(Nc2cccc(-c3cccnc3)c2)n1 |  | item: globulin | mouse, blood | intraperitoneal, 10 mg/kg |  | blood chemistry | 1.8 g/dL |
| CCOc1cc(Oc2ccc(C(F)(F)F)cc2Cl)ccc1[N+](=O)[O-] |  |  | rat male | 0.8125 mg/kg, 8 days |  | body weight gain | 66.2% |
| CC(C)C[C@@H]1NC(=O)CNC(=O)[C@H](CC(N)=O)NC(=O)[C@H](CCCNC(=N)N)NC(=O)[C@H]([C@@H](C)O)NC(=O)[C@@H]2CSSC[C@@H]3NC(=O)[C@H]([C@@H](C)O)NC(=O)CNC(=O)CNC(=O)[C@H](CCCCN)NC(=O)[C@@H]4CSSC[C@H](NC(=O)[C@H]([C@@H](C)O)NC(=O)[C@H](CSSC[C@H](NC(=O)[C@H](C(C)C)NC(=O)[C@@H]5CCCN5C1=O)C(=O)NCC(=O)N[C@@H](CCC(=O)O)C(=O)N[C@@H]([C@@H](C)O)C(=O)N4)NC(=O)CNC(=O)[C@@H]1CCCN1C(=O)[C@H]([C@@H](C)O)NC(=O)[C@H](CC(N)=O)NC3=O)C(=O)N[C@@H](CO)C(=O)N[C@@H](Cc1c[nH]c3ccccc13)C(=O)N1CCC[C@H]1C(=O)N[C@@H](C(C)C)C(=O)N2 |  | HPLC | ammonium bicarbonate 0.1 M | 180 µM, 7 days, pH 9.0, 37 °C, deamidation stability |  | remaining peptide | 81.4 ± 1% |
| COc1ccc2nc3cc(Cl)ccc3c(Nc3cc(CN4CCCC4)c(O)c(CN4CCCC4)c3)c2n1 |  |  | mouse, blood | intraperitoneal, 28 mg/kg |  | neutrophils | 17.7% |
| NCCCC[C@@H]1NC(=O)[C@@H](Cc2c[nH]c3ccccc23)NC(=O)[C@H](c2ccccc2)NC(=O)[C@@H]2C[C@@H](OC(=O)NCCN)CN2C(=O)[C@H](Cc2ccccc2)NC(=O)[C@H](Cc2ccc(OCc3ccccc3)cc2)NC1=O |  |  | healthy volunteers | subcutaneous, 600 µg twice daily, day 5, 1.50 h |  | QTcI change from baseline | 8.5 ms |
| Cc1ccc(F)c2cc(C(=O)N[C@@H]3CCC[C@H](N4CC[C@H](N(C)S(C)(=O)=O)C4)C3)[nH]c12 |  |  | CD1 mouse, plasma | oral, 100 mg/kg, 2 h |  | plasma concentration | 3070 ng/mL |
| O[C@H]1CCCN[C@@H]1CCCn1cnc2c(Cl)c(Cl)ccc21 |  |  | healthy volunteers, plasma | oral, 150 mg twice daily, alone |  | terminal half-life | 4.47 h |
| CCS(=O)(=O)Nc1ccc(Oc2ccc(F)cc2F)c(-c2cn(C)c(=O)c3[nH]ccc23)c1 |  | fibrin D-dimer increased, discontinuation | human, relapsed/refractory AML | oral, dose not given |  | treatment-emergent adverse events | 0% |
| COc1c(OCCCN2CCOCC2)ccc2c1N=C(NC(=O)c1cnc(N)nc1)N1CCN=C21 |  |  | human, non-diabetic, raised baseline HbA1c | concentration not given, after treatment, baseline HbA1c 5.7 to 6.5% |  | HbA1c | 6.3 ± 0.7% |
| Clc1ccc(-c2c(Cl)ccc(Cl)c2Cl)cc1Cl |  |  | polyethylene-water partitioning | PCB compilation | relative to: maximum over minimum K | literature range factor | 2 |
| CC(C)(c1ccccc1)c1cc(-n2nc3ccccc3n2)c(O)c(C(C)(C)c2ccccc2)c1 |  | exposure assessment | human, age 1-2 years | concentration not given, spray sunscreen, 95th percentile |  | daily dermal uptake, percentile | 87.1 ng/kg body weight/day |
| CC(C)C[C@@H]1NC(=O)CNC(=O)[C@H](CC(N)=O)NC(=O)[C@H](CCCNC(=N)N)NC(=O)[C@H]([C@@H](C)O)NC(=O)[C@@H]2CSSC[C@@H]3NC(=O)[C@H]([C@@H](C)O)NC(=O)CNC(=O)CNC(=O)[C@H](C(C)C)NC(=O)[C@@H]4CSSC[C@H](NC(=O)[C@H]([C@@H](C)O)NC(=O)[C@H](CSSC[C@H](NC(=O)[C@H](C(C)C)NC(=O)[C@H](CCCCN)NC1=O)C(=O)NCC(=O)N[C@@H](CCC(=O)O)C(=O)N[C@@H]([C@@H](C)O)C(=O)N4)NC(=O)CNC(=O)[C@@H]1CCCN1C(=O)[C@H]([C@@H](C)O)NC(=O)[C@H](CC(N)=O)NC3=O)C(=O)N[C@@H](CO)C(=O)N[C@@H](Cc1c[nH]c3ccccc13)C(=O)N1CCC[C@H]1C(=O)N[C@@H](C(C)C)C(=O)N2 |  | HPLC | ammonium bicarbonate 0.1 M | 180 µM, 7 days, pH 9.0, 37 °C, deamidation stability |  | remaining peptide | 0% |
| COc1cc2c(Oc3ccc4[nH]c(C)cc4c3F)ccnc2cc1OCC1(N)CC1 |  |  | paediatric recurrent refractory sarcoma | 12 mg |  | grade 1 or 2 AST elevation | 54.5% |
| O=C(O)c1cc(NC(=O)C2CC2c2ccccc2)ccc1O (stereo not shown) |  |  | athymic nude mice | i.p., 15 mg/kg once daily, 3 days |  | tolerability | not toxic |
